{"data": "Published values collected from several papers", "T1": "SNCA 5' UTR IRE RNA A-bulge hairpin (Homo sapiens); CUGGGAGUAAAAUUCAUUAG", "T2": "pre-miR-21 RNA (Homo sapiens); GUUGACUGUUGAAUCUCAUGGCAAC", "T3": "DNA aptamer; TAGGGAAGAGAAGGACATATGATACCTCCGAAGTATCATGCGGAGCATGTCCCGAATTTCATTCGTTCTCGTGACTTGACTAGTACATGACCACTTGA", "T4": "DNA aptamer, 8-thienyl-dG at G6; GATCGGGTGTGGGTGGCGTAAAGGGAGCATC", "T5": "DNA aptamer three adenosine sites; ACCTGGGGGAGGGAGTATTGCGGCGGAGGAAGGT", "T6": "DNA aptamer; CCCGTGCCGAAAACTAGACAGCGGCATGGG", "T7": "pre-miR-21 RNA, hairpin loop region (Homo sapiens); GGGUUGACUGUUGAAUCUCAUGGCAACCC", "T8": "DNA aptamer; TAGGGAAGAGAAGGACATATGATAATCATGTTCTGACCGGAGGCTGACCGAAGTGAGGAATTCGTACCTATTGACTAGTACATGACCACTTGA", "T9": "DNA aptamer; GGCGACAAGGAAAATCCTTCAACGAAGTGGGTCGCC", "note": "Protocols differ between the studies behind these lines."}
{"SMILES": "O=C(CSc1nnc(-c2ccncc2)n1-c1ccc(Br)cc1)Nc1ccc2cn[nH]c2c1", "target": "T1, SNCA 5' UTR IRE RNA A-bulge hairpin (Homo sapiens)", "test": "MST", "Kd": "66 nM"}
{"SMILES": "CN1CCN(c2ccc(-c3ccc4[nH]c(-c5ccc(OCCCC(=O)N6CCN(c7nncc8sccc78)CC6)cc5)nc4c3)cc2)CC1", "target": "T2, pre-miR-21 RNA (Homo sapiens)", "test": "microscale thermophoresis", "Kd": "336 nM"}
{"SMILES": "CC(=O)[C@H]1CC[C@H]2[C@@H]3CCC4=CC(=NOCC(=O)O)CC[C@]4(C)[C@H]3CC[C@]12C", "target": "T3, DNA aptamer", "test": "APAA", "conditions": "NaCl 100 mM", "Kd": "7.37 nM"}
{"SMILES": "C[C@@H]1Cc2c(Cl)cc(C(=O)N[C@@H](Cc3ccccc3)C(=O)O)c(O)c2C(=O)O1", "target": "T4, DNA aptamer, 8-thienyl-dG at G6", "test": "fluorescence titration", "conditions": "pH 8.0, 20 °C, K+ 5 mM, with: OTA 3 µM", "Kd": "10500 nM"}
{"SMILES": "Nc1ncnc2c1ncn2[C@@H]1O[C@H](CO)[C@@H](O)[C@H]1O", "target": "T5, DNA aptamer three adenosine sites", "test": "ITC", "conditions": "pH 7.6, 25 °C, Na+ 100 mM, one-site model", "Kd": "11000 nM"}
{"SMILES": "CCOC(=O)C1=C(Nc2ccccc2)SC(=Cc2ccc(O)c(OCCOCCOCCOCCNC(=O)CCCOc3ccc(-n4c(SCC(=O)Nc5ccc6cn[nH]c6c5)nnc4-c4ccncc4)cc3)c2)C1=O", "target": "T1, SNCA 5' UTR IRE RNA A-bulge hairpin (Homo sapiens)", "test": "MST", "Kd": "97 nM"}
{"SMILES": "C[C@H](Cn1cnc2c(N)ncnc21)OCP(=O)(O)O", "target": "T6, DNA aptamer", "test": "interferometric free solution assay", "conditions": "2 h, 22 °C, NaCl 150 mM, single-site fit", "Kd": "9.04 nM"}
{"SMILES": "C=CCN(CC(=O)N[C@@H](CCCNC(=N)N)C(=O)NCC(=O)NCC(N)=O)C(=O)CN(CC1CCCO1)C(=O)CNCCc1c[nH]c2ccccc12 (stereo partly shown)", "target": "T7, pre-miR-21 RNA, hairpin loop region (Homo sapiens)", "test": "in-line cleavage", "conditions": "pH 8.5, apparent", "Kd": "164000 nM"}
{"SMILES": "C[C@]12CC[C@@H]3c4ccc(O)cc4C(=NOCC(=O)O)C[C@H]3[C@@H]1CC[C@@H]2O", "target": "T8, DNA aptamer", "test": "plate-ELAA", "conditions": "NaCl 100 mM", "Kd": "0.87 nM"}
{"SMILES": "c1ccc([C@H]2CN3CCSC3=N2)cc1", "target": "T9, DNA aptamer", "test": "1H NMR titration", "conditions": "500 µM, pH 6.8, 5 °C, KCl 245 mM, average of four imino protons", "Kd": "500000 nM"}
{"note": "Some of these lines once more:"}
{"SMILES": "CC(=O)[C@H]1CC[C@H]2[C@@H]3CCC4=CC(=NOCC(=O)O)CC[C@]4(C)[C@H]3CC[C@]12C", "target": "T3, DNA aptamer", "test": "APAA", "conditions": "NaCl 100 mM", "Kd": "7.37 nM"}
